Results gathered from unrelated publications.
Each numbered part is a random draw from the data of one study; scales do not carry over between parts.

Set 1
Target: Fragile X messenger ribonucleoprotein 1, C-terminal low-complexity region (Fmr1, Mus musculus, UniProt P35922)
Method: RNA Bind-n-Seq
Molecule type: RNA
Sample: in vitro
Concentration: 200 nM
Notes: whole 134-nt RNA, ends assumed
With: 150 mM LiCl
Reference: input library
Reading: higher = stronger binding
Library: 7-deaza-guanosine replaces G
Shared flanks, not repeated: GGGAGUUCUACAGUCCGACGAUC … UGGAAUUCUCGGGUGUCAAGG
Oligonucleotide	log2 enrichment
UGUCUGGUGACAAGGAAGAGGAUGCUCCUCAUAGAGAAGAUUACUUUGAGCCCAUUUCUCCUGAUCGGAAUUCUGUUCCCCAGGAAGGGC	-2.17
CACAGACAACACGCACCCACAUAGACACAGAGGGAAGGGGUUGGGAUGGGGACAGGGUGCACAGCAGGGCGGGGUAGGACCCCAGCCCCU	0.579
UCCUGUGCUACACAUCGUAUGUACCGAAUCAAACCCCCAAACCCCCCCAAAUUUUUAAAAAAGUAUUAUGUUACGCCGUUCGGAUCUGCA	1.81
GUCCUGUGCUACACAUCGUAUGUACCGAAUCGGAAAAAGGGAAAAAGGGGAAAAAGGGAAAGUAUUAUGUUACGCCGUUCGGAUCUGCAC	0.24
UAACUUUAGAGGAGGAUCUGAUGGAUAUGGCAGUGGACGUGGAUUUGGGGAUGGCUAUAAUGGGUAUGGAGUAGGACCUGGAGGUGGCAA	0.46
GUCCUGUGCUACACAUCGUAUGUACCGAAUCAAAUUUUUAAAUUUUUAAAUUUUUAAAAAAGUAUUAUGUUACGCCGUUCGGAUCUGCAC	-3.6
AGUCCUGUGCUACACAUCGUAUGUACCGAAUCAAACCCAAACCCAAAUUUUUUUAAAAAAGUAUUAUGUUACGCCGUUCGGAUCUGCACU	0.52
UCCUGUGCUACACAUCGUAUGUACCGAAUCGGUUUUUUGGGUUUUUUGGGGUUUUUUGGAAAGUAUUAUGUUACGCCGUUCGGAUCUGCA	0.172
ACCAAAAAGGUGGGCAUCUUUGGGAAGUGGGGCAAGGGGGGGAUAGGGAGGGGGGUAACACUUUGGGAACAGGUGGUCCCAGGUCGUUUC	1.15
UUGACGAGGCCGGCCCGGGAGAUGAGACCACCGGCCAGGAAGUCAUUGUCAUUCAGGACACGGGCUUUUCUGUGAAGAUCCUCGCCCCUG	-2.28
CCUGUGCUACACAUCGUAUGUACCGAAUCGGGUUUUUUUGGGAAAAAGGGUUUUUUUGGGAAAGUAUUAUGUUACGCCGUUCGGAUCUGC	-2.7

Set 2
Target: Interferon regulatory factor 5, full length, phosphomimetic (IRF5, Homo sapiens, UniProt Q13568-2, residues 1-514, K96S/S451D/S453D/S456D/S462D)
Method: protein-binding microarray
Molecule type: double-stranded DNA, one strand shown
Sample: in vitro
Concentration: 250 nM
Notes: 60-bp whole probe
With: salmon DNA 0.4 mg/ml
Reference: random background probes
Reading: higher = stronger binding
Shared flanks, not repeated: GCCTAGCAC … GTCTTGATTCGCTTGACGCTGCTG
Oligonucleotide	log fluorescence [z-score]
ATATATTCATATATATATGAGTGCTAG	0.959
GACGATTTCATTTCCGAGACGTGCTAG	1.19
GACGGTTTCGGTTTCGCGACGTGCTAG	10.3
GACCGACTGGACACTGGGGACGTGCTA	-0.414
GACGGACTGGACACCGGGGACGTGCTA	-0.775
TTAGGACTGCTGTTCCTTTAGTGCTAG	-0.207
CTGCAGGTAGCAGAGACTTGGTGCTAG	-0.435
GACGATCTCAATTTCGAGACGTGCTAG	1.83
GACGGTAGCCTACTGCTGACGTGCTAG	-0.568
GACGGTATCGGGTCTCGGGACGTGCTA	2.03
TCATCTTGTTCTCTCTGACTGTGCTAG	0.413
CTGGCTGGGGTGGTGGCAGTGTGCTAG	-0.651
GAAGGACTGGGGACTGGGGACGTGCTA	-0.657
TTAGATCTCAGACTCGATTAGTGCTAG	-0.315
TTAGGTATCGGGTATCGGTTCGTGCTA	5.96
GTAGGTTTCGGTATCGGTTAGTGCTAG	11.5
TTAGATATCAGTCTTGATTAGTGCTAG	1.25
TTTGGTTTCCTTCTCCTTTAGTGCTAG	1.91
TAAGGTTCCGGTTTCGGTTAGTGCTAG	9.19
TCACTTATAAATAGCACACTGTGCTAG	0.561
CTAGGTCTCCTACTGCTTTAGTGCTAG	-0.495
TCACCTCTCTTTCCAACACTGTGCTAG	0.262
TTAGGTTTACTTATCCTTTAGTGCTAG	-0.0686
TTAGATTTCAATATCGATTAGTGCTAG	6.29
TCAATATTCACTATAGTACTGTGCTAG	0.957

Set 3
Target: RNA binding protein fox-1 homolog 2, RRM domain, GST-SBP tag (RBFOX2, Homo sapiens, UniProt O43251-10, residues 100-194)
Method: RNA Bind-n-Seq
Molecule type: RNA
Sample: in vitro
Concentration: 365 nM
Notes: natural RNA segment, single round, ends assumed
Reference: no-protein control
Reading: higher = stronger binding
Shared flanks, not repeated: GGGAGUUCUACAGUCCGACGAUC … UGGAAUUCUCGGGUGCCAA
Residues (chain): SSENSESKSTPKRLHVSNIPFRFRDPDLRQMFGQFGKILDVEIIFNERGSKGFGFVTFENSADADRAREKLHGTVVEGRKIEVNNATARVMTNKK
Oligonucleotide	RBNS enrichment (R)
GUUCACCCGCCAAAGACCCCUUCGGUGUGACCGGCAGCCUGGCUGACCGUGAGGGCCAGAGAGAGCCUUCACGGACGGCGCUGGUGGGUGAGCCGAGCUGUGGUGGCGGC	0.655
CUAUUUUCUGUUGCCACAGGCUUUAAAGAAACUUUCUGAAUGGGGCCUGGCCCACUUCUCUUUCUCUCCUCCAAAUGAGGAGUUAAAAAUGUUACUAGCAUAGCCCACCC	0.605
AAAGGUGUAAAGUUUGCAAAUUUGAAGAAAUAUAUAUUAACACUGUGGUCAGGUACAUUCCUUAAAACUAAUUAAAUGUACAUUUCUAUAAUAAAUAUUUUUUAAACUAA	0.63
GCUUAAUAACGCCGCACUGGGCCAGCGCGCUGUGCUAGAGAUUUCUCAUCAAAACUAAAGACAGCAAAAGGCUUGUCAGUGAUCUAAGGGUUUGUGAGCUCUCUGCUCUG	0.313
CUGUUCCUCCAGAAUUUGAGUCCUGUUAAUGUAGUGGCAAAGAAGAAAGUUUCUUUUUCUUUUGUGUUAGUCUUGCAAGUUUGUCUACCAGUAAAAGAGCAAAGUUUCCU	17.1
AGCGGCCCUACAAGUGUCCCAGGUGCGGCAAGGCCUUCGCUGAUAGCUCUUACCUACUCCGCCACCAGCGUACCCACUCUGGCCAGAAGCCCUACAAAUGUCCACACUGU	0.427
UCAGCCUGCCCACAUGCCACCGAGCAAACGCAUCUUGCUUUUCACAUCUCUCCUCCUACAGCCUUAAUGGCUGCUUGCUGCCAUAUGUGACAAAUCACCACCACCAGUGU	1.72
UGGUGGUUUCUGUGAGAAUUGGCCAUCCUGAGGACACAGCCAGGACGGCAGAGGCCUCCUGGCCUCAGGGCAUGCCCUGCCUACCUUCUGAAAUGUUUACCCCAUUGACC	0.445
GAGAGCUGGUGCCCAGAGACUGACAGCCUGAUGCUCCCUCCCUGCCCUUGCCUGGGGAAGCCCACCAGGGGUUCUGGCUUCUGAGGGGCACCUGUCCCUCCUCUCCCCUC	0.541
UUGUUUCCAGACCAGCAUCCAGUGGCCAUCAGGUCUUGUGGCCCAAAGGCUAUGCUUGCCUCCGGCUGAGUGCCUGGGAUAGGCCUUUUCUAUGUCUCCCCAAGGCUGGG	0.665
GUGCUGGAGCCAUGGUGUCCUUUGGAGGGACAACGGUGCACGCGGCAUGUAUCCUGGCUGAAGCGCUGCAAUCUUACACUAGCCACAGGGUACUGUUUUGAGCCAAAGGC	0.343
UCGUUCAUUAAACUGACAGAUAUUUUUCUAGGAAGGACUAUUAUCAGUUUCCAAAUGCAAUACUCUAUUCUGGUUUUUCCUGAGUGAGCCUGAUUUUGUUCCUGUUUUUC	0.374

Set 4
Target: Histone acetyltransferase KAT6A, winged helix 2, GST fusion (KAT6A, Homo sapiens, UniProt Q92794, residues 85-181)
Method: protein binding microarray
Molecule type: double-stranded DNA, one strand shown
Sample: in vitro
Concentration: not given
Notes: 8-mer, flanks averaged, mean of 2 arrays, mostly near background
Reference: not given
Reading: higher = stronger binding
Construct (chain): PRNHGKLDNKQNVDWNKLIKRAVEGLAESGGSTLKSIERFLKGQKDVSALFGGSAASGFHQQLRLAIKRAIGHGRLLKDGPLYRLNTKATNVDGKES
Oligonucleotide	E-score
GATTGCCC	0.0831
TTAACTAA	-0.0102
CAGGGCAC	0.143
GAAGTCAC	-0.139
GATCTCAA	0.0838
GGGACCGA	0.202
CCGTAGCA	-8.5e-05
GCGCATTA	0.141
ATATAAAA	0.121
TACGTAGA	-0.256
ATAAGCAT	-0.0272
CTAACTAG	-0.0198
ACTACTTG	-0.11
AGGAGACA	0.0285
GGATTAAC	-0.0259
TACAAAAA	0.0946
AGGTTTTA	-0.058
GAAACTAC	0.111
AGCGACAA	0.0571
